Results from different studies.
Lines come from different studies, so protocols differ.

| SMILES | assay | system | conditions | solubility |
| --- | --- | --- | --- | --- |
| Cc1cc(C)c(C#N)c(SCC(=O)c2ccsc2)n1 |  | aqueous buffer | pH 7.4, 25 °C | < 5 µM |
| Cc1cc(/C=C/C#N)cc(C)c1Oc1nc(NC2CCN(Cc3ccc(P(C)(C)=O)cc3)CC2)nc2ccsc12 |  | water | pH 7 | 36.4 µg/mL |
| Cc1cc(C)c(C#N)c(SCC(=O)c2ccc(F)cc2)n1 |  | aqueous buffer | pH 7.4, 25 °C | < 5 µM |
| CCOC(=O)c1cn(CC)c2cc(N3CCC(C)CC3)c(F)cc2c1=O | shake flask | PBS | 2 h, pH 7.4, 25 °C | 12 µM |
| CN(C)C(=O)c1cc2cnc(Nc3ccc(N4CCNCC4)cn3)nc2n1C1CCCC1 |  | aqueous buffer | 24 h, pH 7.5, 37 °C | 300 µg/mL |
| COC(=O)N[C@H](C(=O)N[C@@H](Cc1ccccc1)[C@@H](O)CN(Cc1ccc(-c2ccccn2)cc1)NC(=O)[C@@H](NC(=O)OC)C(C)(C)C)C(C)(C)C |  | aqueous buffer | pH 7.4 | 2.3 µM |
| Cc1cc(C)c(C#N)c(SCC(=O)c2ccc(Cl)cc2Cl)n1 |  | aqueous buffer | pH 7.4, 25 °C | < 5 µM |
| Cc1[nH]c(C(=O)Nc2ccc(C(=O)O)cc2N2CCC[C@H](N)C2)c(Cl)c1Cl.Cl |  | PBS | 24 h, pH 7.4, 25 °C | 24 µg/mL |
| CCCN(Cc1ccccc1OC)C(=O)c1cccc(Br)c1 |  | aqueous buffer | 12 h, pH 7.4, 37 °C | 36 µg/mL |
| Cc1cc(C)c(C#N)c(SCC(=O)c2ccc(F)cc2F)n1 |  | aqueous buffer | pH 7.4, 25 °C | < 5 µM |
| CCCN(Cc1ccccc1OC)C(=O)c1cccc(C(F)(F)F)c1 |  | aqueous buffer | 12 h, pH 7.4, 37 °C | 900 µg/mL |
| COC(=O)N[C@H](C(=O)N1CCC[C@H]1c1nc(-c2ccc(-c3ccc(-c4c[nH]c([C@@H]5CCCN5C(=O)[C@@H](NC(=O)OC)C(C)C)n4)cc3)cc2)c[nH]1)C(C)C |  | aqueous buffer | pH 7.4 | 0.5 µM |
| CCCN(Cc1ccccc1OC)C(=O)c1cc(C)c(C)s1 |  | aqueous buffer | 12 h, pH 7.4, 37 °C | 501 µg/mL |
| Cc1[nH]c(C(=O)Nc2ccc(-c3n[nH]c(=O)o3)cc2N2CCNCC2)c(Cl)c1Cl.Cl |  | PBS | 24 h, pH 7.4, 25 °C | < 1 µg/mL |
| Cc1cc(C)c(C#N)c(SCC(=O)c2ccc(Cl)cc2)n1 |  | aqueous buffer | pH 7.4, 25 °C | < 5 µM |
| Cl.O=C(O)CNC(=O)c1ccc(NC(=O)c2cc(Br)c(Br)[nH]2)c(N2CCNCC2)c1 |  | PBS | 24 h, pH 7.4, 25 °C | 27 µg/mL |
| CCOC(=O)c1cn(CC)c2cc(N3CCC(Cc4ccccc4)CC3)c(F)cc2c1=O | shake flask | PBS | 2 h, pH 7.4, 25 °C | ~10 µM |
| COc1cc(Cc2cnc(N)nc2N)cc(OC)c1OC | shake flask | aqueous buffer | pH 6.8 | 223 µg/mL |
| CC(/C=C/C=C(\C)C(=O)O)=C\C=C\C=C(C)\C=C\C=C(/C)C(=O)O | shake flask | PBS | 1 h, pH 7.4, 37 °C | 13.9 µg/mL |
| COc1ccc(C(=O)CSc2nc(C)cc(C)c2C#N)cc1 |  | aqueous buffer | pH 7.4, 25 °C | < 5 µM |
| CCCN(Cc1ccccc1OC)C(=O)c1cccc(Br)c1F |  | aqueous buffer | 12 h, pH 7.4, 37 °C | 28 µg/mL |
| O=c1[nH]cc(F)c(=O)[nH]1 | shake flask | aqueous buffer | pH 6.8 | 6830 µg/mL |
| Cc1cc(C)c(C#N)c(SCC(=O)c2ccccc2)n1 |  | aqueous buffer | pH 7.4, 25 °C | < 5 µM |
